Measured values gathered from unrelated publications.
Protocols differ between the studies behind these lines. Values joined by “and” are separate records of one study, mostly repeats; a detail may differ. Numbers after ± are the reported error.
CDPK1: Calmodulin-domain protein kinase 1 (CDPK1, Toxoplasma gondii, UniProt Q9BJF5)
KCNJ13 M125R: Inward rectifier potassium channel 13 (KCNJ13, Homo sapiens, UniProt O60928, M125R)
SUMO-activating enzyme subunit 2 with SAE1: SUMO-activating enzyme subunit 2, with SAE1 (Homo sapiens, UniProt Q9UBT2)
uidA: Beta-glucuronidase (uidA, Escherichia coli, UniProt P05804)

Protein sequences, listed by entry. Tags and fused reporters are not part of them. Chains listed by the source or under a name are the forms on record and can include a tag or linker. Residues count along the entry.
UniProt Q9BJF5, 1-507: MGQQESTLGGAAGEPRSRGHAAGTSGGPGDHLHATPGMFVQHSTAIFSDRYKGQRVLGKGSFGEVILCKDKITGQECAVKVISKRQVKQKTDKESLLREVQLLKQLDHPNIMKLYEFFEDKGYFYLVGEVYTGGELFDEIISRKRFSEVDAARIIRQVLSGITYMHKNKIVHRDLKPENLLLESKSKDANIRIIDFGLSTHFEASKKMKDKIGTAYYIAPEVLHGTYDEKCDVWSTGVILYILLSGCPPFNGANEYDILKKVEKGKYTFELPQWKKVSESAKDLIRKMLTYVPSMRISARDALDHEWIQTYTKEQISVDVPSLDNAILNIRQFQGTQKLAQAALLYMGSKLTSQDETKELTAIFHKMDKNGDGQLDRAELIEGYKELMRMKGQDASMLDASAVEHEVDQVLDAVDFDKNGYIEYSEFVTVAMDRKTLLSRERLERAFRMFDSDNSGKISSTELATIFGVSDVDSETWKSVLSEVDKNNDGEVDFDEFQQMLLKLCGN
UniProt O60928, whole entry M125R: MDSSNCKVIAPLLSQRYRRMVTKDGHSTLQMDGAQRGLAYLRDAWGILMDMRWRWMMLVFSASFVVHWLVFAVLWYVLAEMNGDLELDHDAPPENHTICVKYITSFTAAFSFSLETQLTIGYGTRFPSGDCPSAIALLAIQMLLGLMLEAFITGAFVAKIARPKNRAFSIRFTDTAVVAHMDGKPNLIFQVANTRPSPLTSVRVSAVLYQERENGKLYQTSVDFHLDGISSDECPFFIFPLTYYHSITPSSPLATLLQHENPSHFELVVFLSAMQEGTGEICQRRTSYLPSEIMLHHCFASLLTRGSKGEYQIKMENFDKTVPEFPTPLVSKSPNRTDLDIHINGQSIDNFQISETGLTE
UniProt Q9UBT2, whole entry: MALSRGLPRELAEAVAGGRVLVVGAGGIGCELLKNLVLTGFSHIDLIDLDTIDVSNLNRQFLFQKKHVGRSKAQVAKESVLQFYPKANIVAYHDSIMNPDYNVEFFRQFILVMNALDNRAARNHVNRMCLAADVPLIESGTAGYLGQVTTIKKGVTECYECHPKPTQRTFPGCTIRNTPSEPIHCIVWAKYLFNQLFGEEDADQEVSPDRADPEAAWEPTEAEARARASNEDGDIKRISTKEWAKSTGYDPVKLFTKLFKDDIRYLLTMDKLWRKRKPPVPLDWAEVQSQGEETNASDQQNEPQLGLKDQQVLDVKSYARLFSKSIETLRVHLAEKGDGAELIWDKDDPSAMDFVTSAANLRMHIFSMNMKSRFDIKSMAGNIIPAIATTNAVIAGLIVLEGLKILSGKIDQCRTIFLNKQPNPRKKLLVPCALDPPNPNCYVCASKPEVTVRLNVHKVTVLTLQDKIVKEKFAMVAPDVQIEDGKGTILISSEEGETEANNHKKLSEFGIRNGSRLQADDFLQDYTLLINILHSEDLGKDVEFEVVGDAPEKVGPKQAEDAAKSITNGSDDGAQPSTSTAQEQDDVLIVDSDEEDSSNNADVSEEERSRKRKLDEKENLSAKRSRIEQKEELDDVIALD
UniProt P52333, 812-1124 limits assumed: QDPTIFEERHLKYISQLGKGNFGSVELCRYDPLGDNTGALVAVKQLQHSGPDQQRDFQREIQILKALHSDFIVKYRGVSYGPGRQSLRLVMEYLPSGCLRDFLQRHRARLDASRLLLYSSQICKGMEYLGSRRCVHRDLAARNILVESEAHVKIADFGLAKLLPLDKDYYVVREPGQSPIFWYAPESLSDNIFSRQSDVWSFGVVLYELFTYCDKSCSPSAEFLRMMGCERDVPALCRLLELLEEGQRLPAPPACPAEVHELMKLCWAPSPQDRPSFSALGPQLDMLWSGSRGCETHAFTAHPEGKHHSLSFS
UniProt Q00960, 27-1482 limits assumed: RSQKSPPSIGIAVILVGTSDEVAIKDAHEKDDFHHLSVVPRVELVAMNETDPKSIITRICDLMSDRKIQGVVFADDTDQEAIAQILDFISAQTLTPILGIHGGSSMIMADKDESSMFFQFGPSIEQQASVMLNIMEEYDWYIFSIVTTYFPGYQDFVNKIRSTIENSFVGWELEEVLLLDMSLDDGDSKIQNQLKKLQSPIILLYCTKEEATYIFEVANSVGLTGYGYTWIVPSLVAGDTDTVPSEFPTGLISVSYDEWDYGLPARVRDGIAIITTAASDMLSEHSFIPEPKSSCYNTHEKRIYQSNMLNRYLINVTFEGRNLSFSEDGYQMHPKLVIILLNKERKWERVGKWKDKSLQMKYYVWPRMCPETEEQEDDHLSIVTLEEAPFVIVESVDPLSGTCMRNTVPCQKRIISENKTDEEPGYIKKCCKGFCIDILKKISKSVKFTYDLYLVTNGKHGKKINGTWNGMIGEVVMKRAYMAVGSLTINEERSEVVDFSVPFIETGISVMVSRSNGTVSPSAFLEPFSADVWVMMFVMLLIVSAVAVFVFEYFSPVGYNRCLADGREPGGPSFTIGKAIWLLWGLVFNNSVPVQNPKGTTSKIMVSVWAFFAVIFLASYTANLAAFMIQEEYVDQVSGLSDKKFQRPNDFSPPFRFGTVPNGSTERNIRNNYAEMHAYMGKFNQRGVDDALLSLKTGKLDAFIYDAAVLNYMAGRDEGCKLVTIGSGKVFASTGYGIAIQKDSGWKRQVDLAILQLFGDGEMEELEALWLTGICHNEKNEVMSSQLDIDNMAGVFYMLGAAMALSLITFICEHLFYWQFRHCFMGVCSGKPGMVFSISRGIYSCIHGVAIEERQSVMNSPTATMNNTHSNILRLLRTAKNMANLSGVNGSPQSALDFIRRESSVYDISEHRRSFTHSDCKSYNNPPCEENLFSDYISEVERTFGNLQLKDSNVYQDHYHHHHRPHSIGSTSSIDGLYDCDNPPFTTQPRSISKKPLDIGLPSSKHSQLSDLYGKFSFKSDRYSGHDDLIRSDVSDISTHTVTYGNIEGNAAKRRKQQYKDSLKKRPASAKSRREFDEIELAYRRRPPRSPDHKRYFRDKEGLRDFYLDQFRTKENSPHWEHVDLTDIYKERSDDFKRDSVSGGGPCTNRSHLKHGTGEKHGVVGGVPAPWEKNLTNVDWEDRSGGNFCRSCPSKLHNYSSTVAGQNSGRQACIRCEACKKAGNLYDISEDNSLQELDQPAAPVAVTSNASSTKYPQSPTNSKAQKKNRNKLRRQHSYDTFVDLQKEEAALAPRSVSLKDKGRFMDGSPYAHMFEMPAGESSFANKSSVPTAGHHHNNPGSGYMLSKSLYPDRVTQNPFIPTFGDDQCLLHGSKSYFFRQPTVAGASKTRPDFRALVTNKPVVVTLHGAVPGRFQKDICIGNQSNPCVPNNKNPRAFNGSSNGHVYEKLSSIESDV
UniProt Q6YMS4, 1474-1651 limits assumed: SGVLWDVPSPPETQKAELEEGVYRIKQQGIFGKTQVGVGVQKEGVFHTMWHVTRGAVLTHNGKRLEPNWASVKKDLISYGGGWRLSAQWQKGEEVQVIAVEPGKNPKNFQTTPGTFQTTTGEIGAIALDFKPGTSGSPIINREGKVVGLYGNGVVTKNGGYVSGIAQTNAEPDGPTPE
UniProt Q6YMS4, 1396-1435 partner limits assumed: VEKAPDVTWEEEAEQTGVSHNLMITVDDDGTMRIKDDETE
UniProt P61073, whole entry: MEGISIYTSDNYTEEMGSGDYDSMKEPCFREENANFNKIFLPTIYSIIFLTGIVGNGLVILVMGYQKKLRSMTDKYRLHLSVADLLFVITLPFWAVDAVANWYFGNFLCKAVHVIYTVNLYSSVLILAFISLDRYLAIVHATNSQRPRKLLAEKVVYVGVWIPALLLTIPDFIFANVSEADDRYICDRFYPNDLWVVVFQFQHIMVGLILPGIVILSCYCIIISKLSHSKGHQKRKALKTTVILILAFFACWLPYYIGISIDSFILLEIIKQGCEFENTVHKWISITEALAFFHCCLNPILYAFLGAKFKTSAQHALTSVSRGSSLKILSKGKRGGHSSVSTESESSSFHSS
UniProt Q8IBS5, whole entry: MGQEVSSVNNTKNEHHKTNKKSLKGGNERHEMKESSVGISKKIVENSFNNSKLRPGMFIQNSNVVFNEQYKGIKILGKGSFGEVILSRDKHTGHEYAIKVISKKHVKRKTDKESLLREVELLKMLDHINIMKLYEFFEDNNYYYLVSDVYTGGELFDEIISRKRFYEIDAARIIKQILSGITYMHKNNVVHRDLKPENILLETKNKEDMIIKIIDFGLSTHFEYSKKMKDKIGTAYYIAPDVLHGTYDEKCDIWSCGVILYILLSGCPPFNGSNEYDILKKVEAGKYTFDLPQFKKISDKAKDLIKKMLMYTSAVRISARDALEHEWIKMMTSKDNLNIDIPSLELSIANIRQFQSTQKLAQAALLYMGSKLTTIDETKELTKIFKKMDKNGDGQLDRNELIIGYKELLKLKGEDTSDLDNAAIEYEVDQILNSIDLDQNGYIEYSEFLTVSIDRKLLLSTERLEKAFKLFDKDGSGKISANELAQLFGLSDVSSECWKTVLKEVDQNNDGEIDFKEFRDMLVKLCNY
UniProt P14780, whole entry, looked up: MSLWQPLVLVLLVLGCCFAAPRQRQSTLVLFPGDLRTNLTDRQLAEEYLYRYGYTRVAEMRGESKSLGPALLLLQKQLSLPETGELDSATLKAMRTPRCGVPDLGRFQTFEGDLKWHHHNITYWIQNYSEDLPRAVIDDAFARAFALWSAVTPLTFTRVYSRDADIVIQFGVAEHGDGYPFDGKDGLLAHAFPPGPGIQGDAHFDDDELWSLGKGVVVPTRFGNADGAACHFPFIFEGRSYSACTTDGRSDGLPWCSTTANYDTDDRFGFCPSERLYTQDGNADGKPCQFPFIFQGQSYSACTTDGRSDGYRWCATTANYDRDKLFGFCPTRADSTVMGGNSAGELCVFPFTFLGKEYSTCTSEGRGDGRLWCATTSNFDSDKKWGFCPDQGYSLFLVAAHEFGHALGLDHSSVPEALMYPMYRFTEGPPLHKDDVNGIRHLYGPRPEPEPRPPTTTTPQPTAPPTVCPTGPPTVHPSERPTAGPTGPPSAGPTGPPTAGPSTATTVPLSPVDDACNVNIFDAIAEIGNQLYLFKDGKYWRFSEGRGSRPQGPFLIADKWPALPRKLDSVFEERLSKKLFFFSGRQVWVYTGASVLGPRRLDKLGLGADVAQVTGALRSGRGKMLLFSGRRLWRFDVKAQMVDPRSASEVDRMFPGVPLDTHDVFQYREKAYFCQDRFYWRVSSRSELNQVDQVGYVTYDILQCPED
UniProt P23977, whole entry: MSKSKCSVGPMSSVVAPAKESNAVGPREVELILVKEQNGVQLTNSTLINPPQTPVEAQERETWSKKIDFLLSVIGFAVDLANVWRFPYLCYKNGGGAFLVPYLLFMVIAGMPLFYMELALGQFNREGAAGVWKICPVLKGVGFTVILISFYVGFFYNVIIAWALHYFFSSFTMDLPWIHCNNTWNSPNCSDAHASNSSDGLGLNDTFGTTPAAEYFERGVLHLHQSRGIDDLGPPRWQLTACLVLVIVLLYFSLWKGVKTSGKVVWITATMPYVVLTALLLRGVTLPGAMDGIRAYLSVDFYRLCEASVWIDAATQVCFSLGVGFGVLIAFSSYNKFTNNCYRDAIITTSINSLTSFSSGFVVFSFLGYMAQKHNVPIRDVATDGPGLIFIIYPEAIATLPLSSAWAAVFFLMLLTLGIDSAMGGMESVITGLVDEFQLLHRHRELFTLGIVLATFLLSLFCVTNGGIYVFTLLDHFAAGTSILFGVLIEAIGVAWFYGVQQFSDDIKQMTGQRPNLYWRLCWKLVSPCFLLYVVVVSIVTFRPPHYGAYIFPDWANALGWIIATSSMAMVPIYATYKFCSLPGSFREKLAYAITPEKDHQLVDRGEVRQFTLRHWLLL
UniProt Q81258, 2431-3021 limits assumed: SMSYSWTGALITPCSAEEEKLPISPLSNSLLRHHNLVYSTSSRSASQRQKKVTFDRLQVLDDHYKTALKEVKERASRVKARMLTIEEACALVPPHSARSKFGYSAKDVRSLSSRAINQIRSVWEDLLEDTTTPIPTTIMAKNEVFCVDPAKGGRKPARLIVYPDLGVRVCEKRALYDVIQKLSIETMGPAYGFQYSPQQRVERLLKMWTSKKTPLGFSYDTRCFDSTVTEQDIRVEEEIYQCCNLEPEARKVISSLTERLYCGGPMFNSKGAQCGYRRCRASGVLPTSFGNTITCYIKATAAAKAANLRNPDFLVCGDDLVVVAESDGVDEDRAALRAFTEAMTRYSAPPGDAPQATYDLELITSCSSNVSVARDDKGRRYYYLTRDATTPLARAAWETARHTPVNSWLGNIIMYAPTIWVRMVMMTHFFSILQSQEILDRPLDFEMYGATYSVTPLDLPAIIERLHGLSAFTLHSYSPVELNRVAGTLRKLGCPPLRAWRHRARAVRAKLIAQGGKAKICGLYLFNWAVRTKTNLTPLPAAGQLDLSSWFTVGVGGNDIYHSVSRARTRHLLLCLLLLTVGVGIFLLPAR
UniProt A0A024B7W1, with tags, fused parts or gaps with the stated changes limits assumed: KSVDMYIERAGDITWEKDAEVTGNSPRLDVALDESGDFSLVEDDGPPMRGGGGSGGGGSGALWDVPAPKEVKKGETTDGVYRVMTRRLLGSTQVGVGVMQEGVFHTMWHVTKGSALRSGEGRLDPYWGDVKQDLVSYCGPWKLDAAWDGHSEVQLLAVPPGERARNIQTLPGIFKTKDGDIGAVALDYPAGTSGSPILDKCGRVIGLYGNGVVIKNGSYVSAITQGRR

Structure (SMILES)	target or system	test	test system	conditions	endpoint	result
[2H]c1c([2H])c(S(=O)(=O)N2CCC(F)(C(=O)Nc3ccc4cc(C(=O)O)ccc4c3)CC2)c(C([2H])([2H])[2H])c([2H])c1C([2H])([2H])[2H]	FAAH (Homo sapiens, UniProt O00519)	–	–	pH 8, 37 °C, with: OMP substrate 50 µM	IC50	19000 nM
C=CC(=O)Nc1cc(-n2c(=O)ccc3cnc4ccc(-c5cn[nH]c5)cc4c32)ccc1C	JAK3 (Homo sapiens, UniProt P52333)	KinomeScan binding	–	1 µM	remaining binding	0%
N=C(N)c1ccc(NCCOCCNc2ccc(C(=N)N)cc2)cc1	Glutamate NMDA receptor; Grin1/Grin2b, ifenprodil binding site (Grin1/Grin2b, Rattus norvegicus, UniProt P35439+Q00960)	–	–	pH 7.4	IC50	11400 ± 3700 nM
[11CH3]Nc1ccc(C(=O)C2CCN(C3Cc4ccccc4CC3O)CC2)cc1 (single isomer, unassigned)	–	–	Sprague-Dawley rat, hippocampus	30 min	uptake	0.265 %ID/g
COc1ccc(Sc2cc(C(N)=O)c3ccccc3n2)cc1	CDPK1	kinase activity, inhibitor, ELISA	–	with: syntide-2 substrate, ATP 25 µM	IC50	580 nM
COc1cccc(C(=O)NC2CCN(Cc3cc(Cl)c4cccnc4c3O)CC2)c1	KCNJ13 M125R	ion current, inhibitor, thallium flux	T-REx-HEK293	–	IC50	9300 nM
C[C@H](CS)C(=O)N[C@@H](Cc1c[nH]c2ccccc12)C(=O)O	Klebsiella pneumoniae	–	IMP-1 producing	50 µM, with: meropenem	MIC of meropenem	8 µg/mL
O=C(NC1CCN(Cc2cc(Cl)c3cccnc3c2O)CC1)C1CCCCC1	KCNJ13 M125R	ion current, inhibitor, thallium flux	T-REx-HEK293	–	IC50	9600 nM
C=CC[C@@H](Nc1ccc(OC)cc1)C12C=CC(O1)C(C(=O)OC)=C2C(=O)OC (stereo partly shown)	SUMO-activating enzyme subunit 2 with SAE1	SUMOylation, inhibitor, AlphaScreen	–	with: SUMO1-RanGAP1 conjugation	IC50	22100 nM
NCc1ccc(-c2ncc(OCC3CCNCC3)nc2-c2ccc(-c3ccoc3)cc2)cc1	Genome polyprotein, NS2B-NS3 protease (pol, Dengue virus type 3, UniProt Q6YMS4)	enzyme activity, inhibitor	–	dengue virus type 3 NS2B-NS3 protease	IC50	520 ± 60 nM
COC(=O)[C@@]1(C)C=C(C(=O)Nc2ccc(C)c(C(=O)Nc3ccc(Nc4nccc(-c5cccnc5)n4)cc3)c2)C(=O)CC1	MAPK8 (Homo sapiens, UniProt P45983)	enzyme activity	–	with: glutathione 10 mM	IC50	12 ± 1 nM
CN(CCOc1ccc(C(=N)N)cc1)CCOc1ccc(C(=N)N)cc1	Grin1/Grin2a/Grin2b, MK-801 channel binding site (Rattus norvegicus, UniProt P35439+Q00959+Q00960)	–	–	pH 7	IC50	21200 ± 5100 nM
CC(C)COC(=O)NC1CCN(Cc2cc(Cl)c3cccnc3c2O)CC1	KCNJ13 M125R	ion current, inhibitor, thallium flux	T-REx-HEK293	–	IC50	4100 nM
COc1cc(C(=O)N2CCC(Cc3ccccc3)CC2)ccc1OC(=O)N(C)C	Cholinesterase (BCHE, Equus caballus, UniProt P81908)	enzyme activity, inhibitor, Ellman	–	–	IC50	1600 ± 20 nM
C=C[C@@H](Nc1ccccc1)C12C=CC(O1)C(C(=O)OC)=C2C(=O)OC (stereo partly shown)	SUMO-activating enzyme subunit 2 with SAE1	SUMOylation, inhibitor, AlphaScreen	–	with: SUMO1-RanGAP1 conjugation	IC50	7180 nM
O=C[C@@H]1CCC(=O)NCCCn2cc(nn2)C[C@H](NC(=O)OCc2ccccc2)C(=O)N[C@@H](CC2CCCCC2)C(=O)N1	Genome polyprotein, 3C-like protease (ORF1, Hu/NV/NV/1968/US, UniProt Q83883)	protease activity, inhibitor, FRET	Norovirus	1 h, pH 8	IC50	1600 nM
CO[P@@]1(=O)OC[C@H]2COC(=O)C2=C(C)O1 (relative stereo)	ACHE (Homo sapiens, UniProt P22303)	enzyme activity, inhibitor, modified Ellman	–	racemate	IC50	~40 nM and 40 nM
NC(=O)c1cc(Sc2ccccc2)nc2ccccc12	CDPK1	kinase activity, inhibitor, ELISA	–	with: syntide-2 substrate, ATP 25 µM	IC50	> 20000 nM
CO[C@H]1[C@H](O[C@H]([C@H]2O[C@@H](n3ccc(=O)[nH]c3=O)[C@H](O)[C@@H]2O)[C@H](NCCCNC(=O)[C@@H](NC(=O)[C@@H](NC(=O)N[C@H](C(=O)O)C(C)C)[C@@H]2CCNC(=N)N2)[C@@H](OC(=O)CCCCCCCCCCCCN(O)C(=N)N)C(C)C)C(N)=O)O[C@H](CN)[C@H]1O	MurX (Mycolicibacterium smegmatis)	enzyme activity, inhibitor	P-60 membrane fraction	–	IC50	15 ± 5 nM
Cc1cnccc1C(=O)Nc1nn(Cc2ccc(Cl)cc2Cl)c2ccccc12	Calcium release-activated calcium channel protein 1, with STIM1 (Rattus norvegicus, UniProt Q5M848)	Ca2+ influx, inhibitor	RBL-2H3	with: thapsigargin 1 µM	IC50	> 30000 nM
CN(Cc1cn(-c2ccc(OCCCF)cc2)nn1)S(=O)(=O)c1ccc(CN2CCOCC2)cc1	CXCR4 (Homo sapiens, UniProt P61073)	binding, antagonist	MDA-MB-231	with: biotinylated TN14003	IC50	6.9 nM
COc1ccc(CN[C@@H]2CO[C@H](C(c3ccccc3)c3ccccc3)C[C@H]2O)cc1	HRH3 (Homo sapiens, UniProt Q9Y5N1)	radioligand binding	–	10 µM, with: [3H]alpha-methylhistamine	inhibition	3%

Structure (SMILES)	target or system	test	test system	conditions	endpoint	result
CCCCCCCCCCCCNC(=O)N[C@H](C(=O)N[C@H]1/C=C/CCNC(=O)/C=C/[C@H](C)NC1=O)C(C)C	PSMB5 (Homo sapiens, UniProt P28074)	chymotrypsin-like activity, inhibitor, Proteasome-Glo	ARD	24 h	Ki	14.6 ± 2.68 nM
CNc1nc(N2CCNCC2)c2sc3nc(N4CCOCC4)ccc3c2n1	Beta-glucuronidase (Streptococcus agalactiae serotype V, UniProt Q8E0N2)	enzyme activity, inhibitor	–	–	IC50	400 ± 70 nM
O=C([C@H]1O[C@H](O[C@H]2[C@H](O[C@@H]3O[C@H](C(=O)N4CCN(c5ncccn5)CC4)[C@@H](O[C@H]4O[C@@H](CNS(=O)(=O)O)[C@@H](OCc5ccc6ccccc6c5)[C@H](OCc5ccc6ccccc6c5)[C@H]4NS(=O)(=O)O)[C@H]3OCc3ccc4ccccc4c3)[C@@H](OCc3ccc4ccccc4c3)[C@H](NS(=O)(=O)O)C[C@@H]2NS(=O)(=O)O)[C@H](NS(=O)(=O)O)[C@@H](OCc2ccc3ccccc3c2)[C@@H]1OCc1ccc2ccccc2c1)N1CCN(c2ncccn2)CC1	Heparanase (HPSE, Homo sapiens, UniProt Q9Y251)	enzyme activity, inhibitor, TR-FRET	–	–	IC50	< 25 nM
c1ccc(-c2ccc3c(n2)sc2c(N4CCNCC4)ncnc23)cc1	uidA	enzyme activity, inhibitor	–	–	IC50	16 ± 9 nM
CCOc1ccc2cc(-c3nn(CC4CCNCC4)c4ncnc(N)c34)ccc2n1	Calcium-dependent protein kinase 4 (Plasmodium falciparum, UniProt Q8IBS5)	kinase activity, inhibitor, Kinase-Glo luminescence	–	wild-type enzyme, with: ATP 10 µM, CaCl2 2 mM	IC50	2 nM
O=C(NC1CCCCC1)Oc1ccc(O)c(-c2ccccc2)c1	Faah (Rattus norvegicus, UniProt P97612)	enzyme activity, inhibitor	rat brain membranes	no pre-incubation, with: 10 µM [3H]-anandamide	IC50	30 ± 5.8 nM
CC(C)=CCC/C(C)=C/CCCCN1[C@@H](COP(=O)(O)CP(=O)(O)O)[C@]1(C)CC/C=C(\C)CCC=C(C)C (relative stereo)	Squalene synthase ERG9 (Saccharomyces cerevisiae, UniProt P29704)	enzyme activity, inhibitor	–	pH 7.2, tetrabutylammonium salt, with: 100 µM [3H]FPP, no added pyrophosphate	IC50	3200 ± 200 nM
C/C=C1\NC(=O)[C@@H](NC(=O)[C@@H](NC(=O)[C@H](C)NC(=O)C/C(C)=C/Cl)[C@@H](C)CC)[C@@H](C)OC(=O)[C@H](C(C)C)NC(=O)[C@H](Cc2ccc(O)cc2)N(C)C(=O)[C@H](Cc2ccccc2)N2C(=O)[C@H](CC[C@H]2OC)NC1=O	CELA1 (Sus scrofa, UniProt P00772)	enzyme activity, inhibitor	–	30 min, pH 7.4, 22 °C, with: MeOSuc-Ala-Ala-Pro-Val-AMC	IC50	1.83 nM
CN1CCN(C(c2ccccc2)c2ccccc2)CC1	RNMT (Homo sapiens, UniProt O43148)	enzyme activity, inhibitor	–	–	IC50	159000 ± 36000 nM
COc1ccc(Sc2cc(C(=O)N3Cc4ccccc4C3)ccc2O)cc1OC	HSP90AA1 (Homo sapiens, UniProt P07900)	binding, fluorescence polarization	–	with: FITC-geldanamycin tracer	IC50	530 ± 70 nM
CNc1ccc2c(n1)sc1c(N3CCNCC3)nc(NC)nc12	uidA	enzyme activity, inhibitor	–	–	IC50	20 ± 5 nM
Cc1cc(S(=O)(=O)NC(C(=O)NO)C2CCOCC2)ccc1F (racemic)	MMP9 (Homo sapiens, UniProt P14780)	enzyme activity, fluorogenic peptide cleavage	–	–	IC50	21000 nM
CC(C(=O)c1ccccc1)N1CCCCC1 (stereo not shown)	Slc6a3 (Rattus norvegicus, UniProt P23977)	dopamine uptake, inhibitor	rat caudate synaptosomes	with: [3H]dopamine 5 nM	IC50	2490 nM
O=C(NO)c1cc(F)cc(F)c1	Histone deacetylase 6, CD2 catalytic domain (hdac6, Danio rerio, UniProt F8W4B7)	enzyme activity, inhibitor, fluorogenic	–	30 min, with: Ac-RHK(Ac)K(Ac)-AMC	IC50	1600 ± 100 nM
CC(C)[C@@H]1NC(=O)[C@]2(C)CSC(=N2)c2nc(sc2-c2ccc(CNC(=O)CCCCCNC(=O)CCCCCNC(=O)CCCC[C@@H]3SC[C@@H]4NC(=O)N[C@@H]43)cc2)CNC(=O)C[C@@H](/C=C/CCS)OC1=O	HDAC6 (Homo sapiens, UniProt Q9UBN7)	enzyme activity, inhibitor, fluorogenic	–	with TCEP	IC50	36.5 nM
NCCNCCSc1ccccc1	–	ultrafiltration	mouse plasma, female	50 µg/mL, 60 min, 37 °C	unbound concentration	39000 ± 850 ng/mL
CN(C)c1ccc2c(n1)sc1c(N3CCNCC3)ncnc12	Beta-glucuronidase (Lachnospira eligens, UniProt C4Z6Z2)	enzyme activity, inhibitor	–	–	IC50	800 ± 200 nM
NC(=O)CCOc1c(SSc2cnn(-c3ccccc3)c(=O)c2OCCC(N)=O)cnn(-c2ccccc2)c1=O	srtA (Staphylococcus aureus, UniProt Q2FV99)	inhibitor	–	–	IC50	3250 ± 340 nM
O=c1ccn([C@@H]2O[C@H](COP(=O)(O)OP(=O)(O)OP(=O)(O)O)[C@@H](O)[C@]2(F)Br)c(=O)[nH]1	Genome polyprotein, NS5B polymerase (Hepatitis C virus genotype 3a, UniProt Q81258)	polymerase activity, inhibitor	Hepatitis C virus, genotype 3a	–	IC50	1800 nM
CNCc1ccc(-c2ncc(OCC3CCNCC3)nc2-c2ccc(-c3ccoc3)cc2)cc1	Genome polyprotein, NS2B-NS3 protease (ZIKV, UniProt A0A024B7W1)	enzyme activity, inhibitor	–	Gly4-Ser-Gly4-linked NS2B-NS3 protease	IC50	530 ± 60 nM
COC(=O)C1=C(C(=O)OC)C2([C@@H](Cc3ccccc3)Nc3ccc(Cl)cc3)C=CC1O2 (stereo partly shown)	SUMO-activating enzyme subunit 2 with SAE1	SUMOylation, inhibitor, AlphaScreen	–	with: SUMO1-RanGAP1 conjugation	IC50	710 nM

A few entries again:
Structure (SMILES)	target or system	test	test system	conditions	endpoint	result
NC(=O)CCOc1c(SSc2cnn(-c3ccccc3)c(=O)c2OCCC(N)=O)cnn(-c2ccccc2)c1=O	srtA (Staphylococcus aureus, UniProt Q2FV99)	inhibitor	–	–	IC50	3250 ± 340 nM
COC(=O)[C@@]1(C)C=C(C(=O)Nc2ccc(C)c(C(=O)Nc3ccc(Nc4nccc(-c5cccnc5)n4)cc3)c2)C(=O)CC1	MAPK8 (Homo sapiens, UniProt P45983)	enzyme activity	–	with: glutathione 10 mM	IC50	12 ± 1 nM
CNCc1ccc(-c2ncc(OCC3CCNCC3)nc2-c2ccc(-c3ccoc3)cc2)cc1	Genome polyprotein, NS2B-NS3 protease (ZIKV, UniProt A0A024B7W1)	enzyme activity, inhibitor	–	Gly4-Ser-Gly4-linked NS2B-NS3 protease	IC50	530 ± 60 nM
CC(C)=CCC/C(C)=C/CCCCN1[C@@H](COP(=O)(O)CP(=O)(O)O)[C@]1(C)CC/C=C(\C)CCC=C(C)C (relative stereo)	Squalene synthase ERG9 (Saccharomyces cerevisiae, UniProt P29704)	enzyme activity, inhibitor	–	pH 7.2, tetrabutylammonium salt, with: 100 µM [3H]FPP, no added pyrophosphate	IC50	3200 ± 200 nM
